Experimental data of several laboratories.
Compare with care: the assays were run in different laboratories.
Organism: Leishmania infantum
Observed: parasite growth

SMILES	assay	system	setting	IC50
NNc1nnc(NN)c2ccccc12	MTT		72 h, promastigote	> 25 µM
O=[N+]([O-])/C=C/c1ccc(Br)o1			72 h, promastigote	1.1 µM
CCCCCc1cn(CCCCCCCCCCCOP(=O)([O-])OCC[N+](C)(C)C)nn1		THP-1	24 h, intracellular, amastigote	6.6 µM
CCOC(=O)c1csc(NN=Cc2ccccc2[N+](=O)[O-])n1			72 h, promastigote	159 µM
O=C(Nc1ccc2c(c1)CN(c1ccc(F)c(F)c1)C2=O)N1CCN(c2ccc(F)cc2)CC1	imaging		intracellular, amastigote	12.7 µM
CCOC(=O)c1c(C(=O)OC)cn(CC(c2cn(C)c3ccccc23)c2cn(C)c3ccccc23)c1C	MTS		72 h, promastigote	3.7 µM
O=C(Nc1ccc2c(c1)CN(c1ccc(Cl)c(Cl)c1)C2=O)N1CCN(c2ccc(Cl)cc2)CC1	Giemsa stain	primary peritoneal mouse macrophages, MHOM/MA(BE)/67 amastigotes	5 d	> 64 µM
CCOC(=O)c1cn(CC(c2c[nH]c3cc(Br)ccc23)c2c[nH]c3cc(Br)ccc23)c(C)c1C(=O)OC	MTS		72 h, promastigote	6.6 µM
C/C(=C\c1ccco1)[N+](=O)[O-]			72 h, promastigote	2 µM
O=C(Nc1ccc2c(c1)CN(c1ccccc1)C2=O)N1CC[C@H](O)C1	Giemsa stain	primary peritoneal mouse macrophages, MHOM/MA(BE)/67 amastigotes	5 d	> 64 µM

A few entries again:
SMILES	assay	system	setting	IC50
C/C(=C\c1ccco1)[N+](=O)[O-]			72 h, promastigote	2 µM
